Measurements from different studies.
Lines come from different studies, so protocols differ.
Organism: Escherichia coli

CC(C)C[C@H](NC(=O)[C@H](Cc1ccc(O)cc1)NC(=O)[C@@H]1CCCN1C(=O)[C@@H]1CCCN1C(=O)[C@H](CCCCN)NC(=O)[C@H](CC(=O)O)NC(=O)[C@@H](N)C(C)C)C(=O)N1CCC[C@H]1C(=O)N[C@@H](CCCNC(=N)N)C(=O)N1CCC[C@H]1C(=O)N[C@@H](CCCNC(=N)N)C(=O)N1CCC[C@H]1C(=O)N1CCC[C@H]1C(=O)N[C@@H](CCCNC(=N)N)C(=O)N[C@@H](CCCNC(=N)N)C(N)=O  MIC (broth microdilution; MRE600; 16 h, 37 °C, 25% Mueller-Hinton broth): 2 µg/mL
CN1C(=O)Cc2ccc(F)c(CNCCCC3CN(c4ccc5c(n4)NC(=O)CO5)C(=O)O3)c21 (stereo not shown)  MIC (ATCC 25922): 0.25 µg/mL
CC[C@H](C)[C@H](NC(=O)[C@H](Cc1ccc(O)cc1)NC(=O)[C@@H](NC(=O)[C@@H]1CCCN1C(=O)[C@H](CCCNC(=N)N)NC(=O)[C@H](CC(N)=O)NC(=O)[C@H](CC(N)=O)NC(=O)CN)C(C)C)C(=O)N1CCC[C@H]1C(=O)N[C@@H](CCC(N)=O)C(=O)N1CCC[C@H]1C(=O)N[C@@H](CCCNC(=N)N)C(=O)N1CCC[C@H]1C(=O)N1CCC[C@H]1C(=O)N[C@@H](Cc1c[nH]cn1)C(=O)N1CCC[C@H]1C(=O)N[C@@H](CCCNC(=N)N)C(=O)N[C@@H](CC(C)C)C(=O)O  MIC (broth dilution; K12 BW25113): 9.4 µM
O=C(O)c1cccc(C(=O)O)n1  MIC (VIM-2 producer; 32 µg/mL, MIC of meropenem, with: meropenem): 0.125 µg/mL
CC[C@H](C)[C@H](NC(=O)CNC(=O)[C@H](CC(=O)O)NC(=O)[C@H](CCCNC(=N)N)NC(=O)[C@@H](NC(=O)[C@H](CC(N)=O)NC(=O)[C@H](CCC(=O)O)NC(=O)CNC(=O)[C@@H](NC(=O)[C@H](CCCCN)NC(=O)[C@H](CCC(=O)O)NC(=O)[C@@H](NC(=O)[C@H](CCCCN)NC(=O)[C@H](CCCCN)NC(=O)[C@H](Cc1ccccc1)NC(=O)[C@@H](NC(=O)[C@H](CCCCN)NC(=O)[C@H](Cc1c[nH]c2ccccc12)NC(=O)[C@@H](N)CCCNC(=N)N)[C@@H](C)CC)[C@@H](C)CC)C(C)C)C(C)C)C(=O)N[C@H](C(=O)N[C@@H](CCCCN)C(=O)N[C@@H](C)C(=O)NCC(=O)N1CCC[C@H]1C(=O)N[C@@H](C)C(=O)N[C@H](C(=O)N[C@@H](C)C(=O)N[C@H](C(=O)N[C@H](C(=O)NCC(=O)N[C@@H](CCC(N)=O)C(=O)N[C@@H](C)C(=O)N[C@@H](C)C(=O)N[C@H](C(=O)N[C@H](C(=O)N[C@H](C(=O)N[C@@H](CCCCN)C(N)=O)C(C)C)C(C)C)[C@@H](C)O)C(C)C)C(C)C)C(C)C)[C@@H](C)CC  MIC (K1 ATCC 700973, Mueller-Hinton broth; 16 h, 37 °C; growth inhibition over 99%): 2 µM
Cc1ccc2[nH]c3c(c2c1)CCCC3NCCc1ccc(O)cc1 (stereo not shown)  MIC (broth microdilution; MB5746 efflux-deficient hyperpermeable): 16 µg/mL
CC[C@H](C)[C@H](NC(=O)[C@H](CCCCN)NC(=O)[C@@H](NC(=O)[C@@H](NC(=O)[C@H](CC(C)C)NC(=O)[C@H](CCCNC(=N)N)NC(=O)[C@@H](NC(=O)[C@H](CC(C)C)NC(=O)[C@H](CCCNC(=N)N)NC(=O)CNC(=O)[C@H](Cc1ccccc1)NC(=O)[C@@H](N)CCCNC(=N)N)[C@@H](C)CC)[C@@H](C)CC)C(C)C)C(=O)N[C@@H](C)C(=O)N[C@@H](CCCNC(=N)N)C(=O)N[C@@H](CCCNC(=N)N)C(=O)N[C@@H](C)C(=O)N[C@@H](Cc1c[nH]cn1)C(=O)N[C@@H](CCCNC(=N)N)C(=O)N[C@@H](C)C(=O)N[C@@H](CCCNC(=N)N)C(=O)N[C@@H](CO)C(=O)N[C@@H](C)C(=O)N[C@H](C(=O)N[C@@H](CCCCN)C(=O)N[C@@H](C)C(=O)N[C@@H](C)C(=O)N[C@@H](CO)C(=O)N[C@@H](CC(N)=O)C(=O)N[C@H](C(=O)N[C@@H](C)C(=O)N[C@@H](CCC(=O)O)C(=O)N[C@@H](CC(C)C)C(=O)N[C@@H](C)C(=O)N[C@@H](Cc1c[nH]cn1)C(=O)NCC(=O)N[C@@H](CCC(=O)O)C(=O)O)C(C)C)C(C)C  MIC (bacterial growth, broth microdilution; cation-adjusted Mueller Hinton broth; 18 h, 37 °C): 0.501 µM
CC1(C)S[C@@H]2[C@H](NC(=O)C(C(=O)O)c3ccccc3)C(=O)N2[C@H]1C(=O)O (stereo partly shown)  MIC (broth microdilution; Keio mutant JW2142-1): 12.5 µg/mL
CC[C@H](C)[C@H](NC(=O)[C@H](CCCCN)NC(=O)[C@H](CC(=O)O)NC(=O)[C@H](CC(C)C)NC(=O)[C@@H](NC(=O)[C@H](CC(N)=O)NC(=O)[C@H](CC(C)C)NC(=O)[C@@H](NC(=O)[C@H](Cc1ccccc1)NC(=O)[C@H](CCCCN)NC(=O)[C@H](CCCCN)NC(=O)CNC(=O)[C@H](C)NC(=O)[C@H](CC(N)=O)NC(=O)[C@H](CCCCN)NC(=O)[C@H](Cc1ccccc1)NC(=O)[C@H](CC(N)=O)NC(=O)[C@H](CCC(=O)O)NC(=O)[C@H](Cc1c[nH]c2ccccc12)NC(=O)[C@H](CC(C)C)NC(=O)[C@@H](N)CO)[C@@H](C)CC)[C@@H](C)CC)C(=O)N[C@@H](CCCNC(=N)N)C(N)=O  MIC (ATCC 8739; overnight, 37 °C, no added salts or serum): 2 µM
COc1c(N2C[C@@H]3CCCN[C@@H]3C2)c(F)cc2c(=O)c(C(=O)O)cn(C3CC3)c12  MIC (NR 51487, fluoroquinolone-resistant): 73 µM
CC[C@H](C)[C@H](N)C(=O)N[C@@H](CCCNC(=N)N)C(=O)N[C@H](C(=O)N[C@@H](Cc1c[nH]c2ccccc12)C(=O)N[C@@H](Cc1ccccc1)C(=O)N[C@H](C(=O)N[C@@H](CCCCN)C(=O)N[C@H](C(=O)N[C@@H](CCCNC(=N)N)C(=O)N[C@@H](CCCCN)C(=O)N[C@@H](Cc1c[nH]c2ccccc12)C(=O)N[C@@H](CCCCN)C(=O)N[C@@H](C)C(=O)N[C@H](C(=O)N[C@@H](Cc1ccc(O)cc1)C(=O)N[C@@H](Cc1c[nH]cn1)C(=O)N[C@H](C(N)=O)[C@@H](C)O)[C@@H](C)CC)C(C)C)[C@@H](C)CC)C(C)C  MIC (broth dilution; ATCC 25922, Mueller-Hinton broth; 24 h, 37 °C): 50 µM
CC(C)C[C@@H](NC(=O)CNC(=O)[C@@H](CCCCN)NC(=O)[C@@H](CC(C)C)NC(=O)[C@@H](CCCCN)NC(=O)[C@@H](CCCNC(=N)N)NC(=O)[C@@H](CC(C)C)NC(=O)[C@@H](CC(C)C)NC(=O)[C@@H](CCCNC(=N)N)NC(=O)[C@H](N)CCCNC(=N)N)C(=O)N[C@H](CCCCN)C(=O)N[C@H](CCCCN)C(=O)N[C@H](Cc1ccc(O)cc1)C(=O)N[C@H](CC(C)C)C(=O)N[C@H](Cc1ccc(O)cc1)C(=O)N[C@H](Cc1ccccc1)C(=O)N[C@H](CCCCN)C(=O)N[C@H](CC(C)C)C(=O)N[C@H](CCC(N)=O)C(=O)N[C@H](CC(C)C)C(=O)N[C@H](CC(C)C)C(=O)N[C@H](CCCCN)C(=O)N[C@H](CCCCN)C(N)=O  MIC (broth microdilution; KCTC 1682, Mueller-Hinton broth; with: NH4Cl 6 µM): 16 µM
CC[C@H](C)[C@H](NC(=O)[C@H](CCCNC(=N)N)NC(=O)[C@H](CCCNC(=N)N)NC(=O)[C@H](CCCNC(=N)N)NC(=O)[C@H](CCCNC(=N)N)NC(=O)[C@H](CCCNC(=N)N)NC(=O)[C@@H](N)CCCNC(=N)N)C(=O)N[C@@H](CO)C(=O)N[C@@H](Cc1ccccc1)C(=O)N[C@@H](CC(C)C)C(=O)NCC(=O)N[C@@H](CO)C(=O)N[C@@H](CCCCN)C(=O)N[C@@H](CCCCN)C(=O)N[C@@H](CCCCN)C(=O)N[C@@H](CCCCN)C(=O)N[C@@H](CCCCN)C(=O)N[C@@H](CC(C)C)C(=O)N[C@@H](CC(C)C)C(=O)N[C@@H](CCCCN)C(=O)N[C@@H](CCCNC(=N)N)C(N)=O  MIC (checkerboard; 24 h, 37 °C, alone, rifampicin plate): 32 µM
CC1(C)CC[C@]2(C(=O)O)CC[C@]3(C)C(=CC[C@@H]4[C@@]5(C)CC[C@H](O)C(C)(C)[C@@H]5CC[C@]43C)[C@@H]2C1  MIC (BL21 pET28a-KPC-2): 512 µg/mL
CC1(C)SC2C(NC(=O)C(NC(=O)C3=C(O)CNC3=O)c3ccccc3)C(=O)N2C1C(=O)O (stereo not shown)  MIC (broth microdilution; Keio mutant JW5086-3; 18 h, ferrienterobactin permease gene): 25 µg/mL
CC[C@H](C)[C@H](NC(=O)[C@H](CCCCN)NC(=O)[C@@H]1CCCN1C(=O)[C@H](CCCNC(=N)N)NC(=O)[C@H](Cc1ccc(O)cc1)NC(=O)[C@H](CCCNC(=N)N)NC(=O)[C@H](CCCNC(=N)N)NC(=O)[C@@H](NC(=O)[C@H](CCCNC(=N)N)NC(=O)[C@H](CCCNC(=N)N)NC(=O)[C@H](CC(C)C)NC(=O)[C@H](Cc1ccccc1)NC(=O)[C@H](CCCNC(=N)N)NC(=O)[C@H](CO)NC(=O)[C@H](Cc1ccccc1)NC(=O)[C@@H](N)CCCNC(=N)N)C(C)C)C(=O)N[C@@H](CO)C(=O)N[C@@H](Cc1ccccc1)C(=O)N[C@@H](CC(N)=O)C(=O)N[C@@H](CC(C)C)C(=O)N[C@@H](CCC(=O)O)C(=O)N1CCC[C@H]1C(=O)N[C@@H](Cc1ccccc1)C(=O)N[C@@H](Cc1ccccc1)C(=O)N[C@@H](CCCCN)C(=O)N[C@@H](Cc1ccccc1)C(=O)O  MIC (broth microdilution; K88, Mueller-Hinton broth; 37 °C): 1.27 µM

Excerpt of the above:
CC(C)C[C@@H](NC(=O)CNC(=O)[C@@H](CCCCN)NC(=O)[C@@H](CC(C)C)NC(=O)[C@@H](CCCCN)NC(=O)[C@@H](CCCNC(=N)N)NC(=O)[C@@H](CC(C)C)NC(=O)[C@@H](CC(C)C)NC(=O)[C@@H](CCCNC(=N)N)NC(=O)[C@H](N)CCCNC(=N)N)C(=O)N[C@H](CCCCN)C(=O)N[C@H](CCCCN)C(=O)N[C@H](Cc1ccc(O)cc1)C(=O)N[C@H](CC(C)C)C(=O)N[C@H](Cc1ccc(O)cc1)C(=O)N[C@H](Cc1ccccc1)C(=O)N[C@H](CCCCN)C(=O)N[C@H](CC(C)C)C(=O)N[C@H](CCC(N)=O)C(=O)N[C@H](CC(C)C)C(=O)N[C@H](CC(C)C)C(=O)N[C@H](CCCCN)C(=O)N[C@H](CCCCN)C(N)=O  MIC (broth microdilution; KCTC 1682, Mueller-Hinton broth; with: NH4Cl 6 µM): 16 µM
CC[C@H](C)[C@H](NC(=O)[C@H](CCCNC(=N)N)NC(=O)[C@H](CCCNC(=N)N)NC(=O)[C@H](CCCNC(=N)N)NC(=O)[C@H](CCCNC(=N)N)NC(=O)[C@H](CCCNC(=N)N)NC(=O)[C@@H](N)CCCNC(=N)N)C(=O)N[C@@H](CO)C(=O)N[C@@H](Cc1ccccc1)C(=O)N[C@@H](CC(C)C)C(=O)NCC(=O)N[C@@H](CO)C(=O)N[C@@H](CCCCN)C(=O)N[C@@H](CCCCN)C(=O)N[C@@H](CCCCN)C(=O)N[C@@H](CCCCN)C(=O)N[C@@H](CCCCN)C(=O)N[C@@H](CC(C)C)C(=O)N[C@@H](CC(C)C)C(=O)N[C@@H](CCCCN)C(=O)N[C@@H](CCCNC(=N)N)C(N)=O  MIC (checkerboard; 24 h, 37 °C, alone, rifampicin plate): 32 µM
